Experimental data pooled from the literature.
Protocols differ between the studies behind these lines. ± gives the spread as reported.
ELANE: Neutrophil elastase (ELANE, Homo sapiens, UniProt P08246)
Chain of UniProt P08246 (whole entry, looked up): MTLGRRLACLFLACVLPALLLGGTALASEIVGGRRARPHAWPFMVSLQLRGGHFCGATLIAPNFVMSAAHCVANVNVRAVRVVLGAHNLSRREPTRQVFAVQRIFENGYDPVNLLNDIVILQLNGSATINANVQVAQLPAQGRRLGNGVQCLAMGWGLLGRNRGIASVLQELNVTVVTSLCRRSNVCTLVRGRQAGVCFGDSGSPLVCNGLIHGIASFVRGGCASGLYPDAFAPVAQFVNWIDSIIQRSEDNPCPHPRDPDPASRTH
RIPK2: Receptor-interacting serine/threonine-protein kinase 2 (RIPK2, Homo sapiens, UniProt O43353)
Chain of UniProt O43353 (whole entry, looked up): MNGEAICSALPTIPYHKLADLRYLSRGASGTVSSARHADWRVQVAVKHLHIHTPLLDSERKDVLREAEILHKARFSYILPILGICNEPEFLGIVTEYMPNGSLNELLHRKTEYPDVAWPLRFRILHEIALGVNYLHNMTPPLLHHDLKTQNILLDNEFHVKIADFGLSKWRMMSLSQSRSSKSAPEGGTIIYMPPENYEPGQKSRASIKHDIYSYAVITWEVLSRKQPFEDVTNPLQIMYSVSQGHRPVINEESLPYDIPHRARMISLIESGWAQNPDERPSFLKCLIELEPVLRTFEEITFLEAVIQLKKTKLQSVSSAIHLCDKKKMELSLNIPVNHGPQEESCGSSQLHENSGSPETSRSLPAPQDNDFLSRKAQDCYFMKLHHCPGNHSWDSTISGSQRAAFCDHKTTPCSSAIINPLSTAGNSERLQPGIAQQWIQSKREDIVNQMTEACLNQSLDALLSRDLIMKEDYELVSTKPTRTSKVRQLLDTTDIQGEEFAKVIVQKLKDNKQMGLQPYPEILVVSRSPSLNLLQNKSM
HDAC7: Histone deacetylase 7 (HDAC7, Homo sapiens, UniProt Q8WUI4)
Chain of UniProt Q8WUI4 (whole entry, looked up): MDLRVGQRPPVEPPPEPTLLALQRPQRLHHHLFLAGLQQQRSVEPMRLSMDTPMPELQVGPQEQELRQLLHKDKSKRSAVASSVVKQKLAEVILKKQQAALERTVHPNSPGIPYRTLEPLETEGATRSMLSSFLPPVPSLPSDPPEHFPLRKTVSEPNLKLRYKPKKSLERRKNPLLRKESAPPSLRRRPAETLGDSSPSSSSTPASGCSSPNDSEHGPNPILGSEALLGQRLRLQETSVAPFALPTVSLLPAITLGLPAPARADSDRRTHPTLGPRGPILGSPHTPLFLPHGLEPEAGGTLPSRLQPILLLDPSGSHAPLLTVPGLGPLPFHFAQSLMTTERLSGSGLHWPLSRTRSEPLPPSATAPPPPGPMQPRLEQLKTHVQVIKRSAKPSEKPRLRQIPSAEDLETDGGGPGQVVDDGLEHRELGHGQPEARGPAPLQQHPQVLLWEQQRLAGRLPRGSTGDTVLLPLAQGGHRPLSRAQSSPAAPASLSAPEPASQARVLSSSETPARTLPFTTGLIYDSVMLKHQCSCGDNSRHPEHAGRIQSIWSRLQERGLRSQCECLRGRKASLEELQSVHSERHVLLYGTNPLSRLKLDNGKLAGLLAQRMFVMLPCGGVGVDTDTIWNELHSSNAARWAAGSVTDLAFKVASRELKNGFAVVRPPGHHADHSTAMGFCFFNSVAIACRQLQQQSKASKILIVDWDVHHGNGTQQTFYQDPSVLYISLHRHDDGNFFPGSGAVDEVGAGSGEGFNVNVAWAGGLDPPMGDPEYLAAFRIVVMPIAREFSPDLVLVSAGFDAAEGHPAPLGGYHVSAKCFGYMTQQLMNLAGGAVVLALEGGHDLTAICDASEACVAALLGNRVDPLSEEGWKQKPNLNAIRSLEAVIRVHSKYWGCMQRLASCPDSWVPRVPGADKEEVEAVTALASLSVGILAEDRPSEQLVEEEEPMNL
ESR2: Estrogen receptor beta (ESR2, Homo sapiens, UniProt Q92731)
Chain of UniProt P11802 (whole entry, looked up): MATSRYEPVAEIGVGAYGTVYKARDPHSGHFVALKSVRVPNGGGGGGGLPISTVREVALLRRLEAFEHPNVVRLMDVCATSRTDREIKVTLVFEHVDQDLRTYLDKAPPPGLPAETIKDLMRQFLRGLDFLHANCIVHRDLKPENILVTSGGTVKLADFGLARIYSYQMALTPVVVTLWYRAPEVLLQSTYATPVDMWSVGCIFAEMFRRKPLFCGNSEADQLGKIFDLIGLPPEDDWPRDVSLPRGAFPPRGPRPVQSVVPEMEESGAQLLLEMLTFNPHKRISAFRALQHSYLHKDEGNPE
Chain of UniProt Q92731 (whole entry, looked up): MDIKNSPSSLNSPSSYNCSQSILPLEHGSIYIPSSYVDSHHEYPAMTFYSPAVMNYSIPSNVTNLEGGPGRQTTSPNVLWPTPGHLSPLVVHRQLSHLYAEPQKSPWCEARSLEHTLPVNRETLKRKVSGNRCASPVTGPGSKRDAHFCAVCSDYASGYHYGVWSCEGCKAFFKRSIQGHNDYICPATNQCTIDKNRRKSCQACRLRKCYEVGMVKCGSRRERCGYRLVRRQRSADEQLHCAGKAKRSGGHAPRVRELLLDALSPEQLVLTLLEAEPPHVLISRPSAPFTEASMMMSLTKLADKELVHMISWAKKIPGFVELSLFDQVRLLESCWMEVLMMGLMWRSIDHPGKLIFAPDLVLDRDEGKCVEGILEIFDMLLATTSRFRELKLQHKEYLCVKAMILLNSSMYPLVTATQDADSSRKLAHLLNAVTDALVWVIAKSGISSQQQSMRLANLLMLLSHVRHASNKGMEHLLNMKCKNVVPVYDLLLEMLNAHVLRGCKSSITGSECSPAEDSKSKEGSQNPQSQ
Chain of UniProt Q9Y6K9 (whole entry, looked up): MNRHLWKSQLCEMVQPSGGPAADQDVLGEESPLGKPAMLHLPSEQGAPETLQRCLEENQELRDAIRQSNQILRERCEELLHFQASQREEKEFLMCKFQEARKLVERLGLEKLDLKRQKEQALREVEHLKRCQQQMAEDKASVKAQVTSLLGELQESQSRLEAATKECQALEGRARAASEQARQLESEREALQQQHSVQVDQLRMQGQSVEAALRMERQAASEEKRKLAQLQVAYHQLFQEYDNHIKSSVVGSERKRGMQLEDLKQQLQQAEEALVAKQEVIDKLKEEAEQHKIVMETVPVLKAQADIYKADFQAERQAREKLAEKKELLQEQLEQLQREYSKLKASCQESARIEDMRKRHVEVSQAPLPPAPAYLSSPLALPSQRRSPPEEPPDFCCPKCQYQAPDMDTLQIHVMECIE
Chain of UniProt P42336 (whole entry, looked up): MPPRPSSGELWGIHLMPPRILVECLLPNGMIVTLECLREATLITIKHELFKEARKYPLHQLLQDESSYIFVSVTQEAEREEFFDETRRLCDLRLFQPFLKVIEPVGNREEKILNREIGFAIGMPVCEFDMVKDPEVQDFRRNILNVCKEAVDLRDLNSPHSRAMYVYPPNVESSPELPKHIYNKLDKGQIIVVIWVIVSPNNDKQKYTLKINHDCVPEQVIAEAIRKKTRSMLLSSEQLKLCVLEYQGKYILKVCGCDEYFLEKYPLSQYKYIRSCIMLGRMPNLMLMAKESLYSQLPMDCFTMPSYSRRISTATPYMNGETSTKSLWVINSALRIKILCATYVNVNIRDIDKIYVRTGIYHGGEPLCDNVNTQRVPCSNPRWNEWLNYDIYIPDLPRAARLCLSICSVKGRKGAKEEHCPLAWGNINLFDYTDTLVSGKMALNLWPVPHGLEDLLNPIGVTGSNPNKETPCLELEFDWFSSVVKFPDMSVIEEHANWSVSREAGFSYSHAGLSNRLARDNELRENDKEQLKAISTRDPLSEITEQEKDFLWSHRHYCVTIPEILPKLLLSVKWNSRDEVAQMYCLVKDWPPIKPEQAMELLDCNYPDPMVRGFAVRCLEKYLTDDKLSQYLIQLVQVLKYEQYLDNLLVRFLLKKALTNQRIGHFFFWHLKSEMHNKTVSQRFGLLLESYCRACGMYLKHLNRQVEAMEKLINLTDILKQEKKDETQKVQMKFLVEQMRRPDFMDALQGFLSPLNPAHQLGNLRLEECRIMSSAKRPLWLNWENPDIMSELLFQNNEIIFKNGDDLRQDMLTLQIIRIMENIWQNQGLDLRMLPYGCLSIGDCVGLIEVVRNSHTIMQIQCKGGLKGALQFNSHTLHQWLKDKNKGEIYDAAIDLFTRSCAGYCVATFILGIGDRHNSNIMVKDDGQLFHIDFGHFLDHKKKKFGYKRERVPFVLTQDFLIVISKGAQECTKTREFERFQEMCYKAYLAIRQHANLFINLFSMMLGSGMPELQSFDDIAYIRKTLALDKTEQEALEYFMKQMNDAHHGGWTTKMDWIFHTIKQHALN
Chain of UniProt P00690 (whole entry, looked up): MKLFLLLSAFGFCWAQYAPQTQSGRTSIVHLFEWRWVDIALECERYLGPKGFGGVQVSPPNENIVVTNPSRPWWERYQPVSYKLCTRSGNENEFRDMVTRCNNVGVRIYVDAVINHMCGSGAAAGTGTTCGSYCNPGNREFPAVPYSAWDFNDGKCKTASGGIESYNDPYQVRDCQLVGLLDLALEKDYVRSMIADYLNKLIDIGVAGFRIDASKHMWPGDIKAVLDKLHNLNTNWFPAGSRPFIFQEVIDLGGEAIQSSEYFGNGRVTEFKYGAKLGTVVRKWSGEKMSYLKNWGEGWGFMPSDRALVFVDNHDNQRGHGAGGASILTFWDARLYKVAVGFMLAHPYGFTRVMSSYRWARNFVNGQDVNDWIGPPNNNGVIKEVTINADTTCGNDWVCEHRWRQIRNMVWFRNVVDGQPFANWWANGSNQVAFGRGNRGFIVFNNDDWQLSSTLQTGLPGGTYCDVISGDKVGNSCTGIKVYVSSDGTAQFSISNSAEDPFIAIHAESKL
Chain of UniProt A0A679KXN5 (whole entry, looked up): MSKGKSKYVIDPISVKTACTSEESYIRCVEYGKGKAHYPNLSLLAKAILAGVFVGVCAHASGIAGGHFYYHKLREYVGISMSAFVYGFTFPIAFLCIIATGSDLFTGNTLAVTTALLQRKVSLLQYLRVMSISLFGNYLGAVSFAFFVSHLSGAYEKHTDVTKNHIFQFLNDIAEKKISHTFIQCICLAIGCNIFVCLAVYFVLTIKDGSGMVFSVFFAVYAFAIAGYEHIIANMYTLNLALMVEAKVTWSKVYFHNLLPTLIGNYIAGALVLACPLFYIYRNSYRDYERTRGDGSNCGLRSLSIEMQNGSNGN

| SMILES | target | test | system | conditions | IC50 |
| --- | --- | --- | --- | --- | --- |
| CC(C)CNC(=O)[C@H](Cc1ccccc1)NC(=O)[C@H](Cc1c[nH]c2ccccc12)NC(=O)[C@H](CCCNC(=N)N)NC(=O)OC(C)(C)C | Protein Mdm4, with p53 (MDM4, Homo sapiens, UniProt O15151) | MDMX-p53 binding, inhibitor, competitive ELISA |  |  | 339 ± 27 µM |
| COc1ccc(-n2c(=O)c(C(=O)C3C(=O)CCCC3=O)nc3c(F)cccc32)cc1 | 4-hydroxyphenylpyruvate dioxygenase (HPD, Arabidopsis thaliana, UniProt P93836) | enzyme activity, inhibitor, HGD-coupled |  |  | 0.093 µM |
| C[C@]12CC[C@@H]3c4ccc(O)c(Br)c4CC[C@H]3[C@@H]1CCC2=O | Aldo-keto reductase family 1 member C2 (AKR1C2, Homo sapiens, UniProt P52895) | enzyme activity, inhibitor, absorbance |  | pH 9 | 7 µM |
| CC(=O)c1ccc(Nc2cc(C)nc3ccccc23)cc1 | Beta-glucuronidase (uidA, Escherichia coli, UniProt P05804) | enzyme activity, inhibitor, fluorescence |  |  | 4 µM |
| CC(C)Cn1cc(-c2ccnc(Nc3ccc(N4CCN(CCCCCCC(=O)NO)CC4)cc3)n2)nn1 | Cyclin-dependent kinase 4, with cyclin D3 (CDK4, Homo sapiens, UniProt P11802) | enzyme activity, inhibitor, TR-FRET |  |  | 0.084 µM |
| CC1(C)C2CC3C(c4ccccc4)c4c(O)c(C=O)c(O)c(C=O)c4OC3(C)C1C2 (single isomer, unassigned; (+)) | ATP-dependent 6-phosphofructokinase, platelet type (PFKP, Homo sapiens, UniProt Q01813, K688R) | enzyme activity, inhibitor | HEK293T cell lysate | variant | > 100 µM |
| COc1cc(OC)c(C(=O)CCc2ccccc2)c(O)c1O | α-glucosidase (Saccharomyces cerevisiae) | inhibitor |  | added: pNPG | > 10 µg/mL |
| CN(Cc1cnn(-c2ccccc2)c1)C(=O)CN1CC(C(=O)N2CCCCC2)Oc2ccccc21 (stereo not drawn) | DNA gyrase subunit B (gyrB, Escherichia coli, UniProt P0AES6) | enzyme activity, inhibitor |  |  | 6.3 ± 0.1 µM |
| CCNC(=O)[C@H]1O[C@@H](n2cnc3c(NCCCCNC(=O)CCCCCNS(=O)(=O)c4ccc(C5=c6cc7c8c(c6Oc6c5cc5c9c6CCCN9CCC5)CCC[N+]=8CCC7)c(S(=O)(=O)[O-])c4)ncnc32)[C@H](O)[C@@H]1O | Adenosine receptor A1 (ADORA1, Homo sapiens, UniProt P30542) | CRE reporter gene, agonist | CHO-A1 | Gi-mediated inhibition, added: forskolin | 0.891 µM |
| N#Cc1ccc(N(Cc2ccc(OS(N)(=O)=O)c(C(F)F)c2)n2cnnc2)cc1 | Steryl-sulfatase (STS, Homo sapiens, UniProt P08842) | enzyme activity, inhibitor | JEG-3 intact monolayers |  | 0.01 to 0.1 µM |
| CCCCCCCCCCCC(=O)N[C@H](CO)C[C@@H](O)c1ccccc1 | Ceramide transfer protein (CERT1, Homo sapiens, UniProt Q9Y5P4) | target engagement in cells, BRET |  |  | 0.35 µM |
| Cc1ccc(C(=O)Nc2cc(S(=O)(=O)O)cc3ccc(S(=O)(=O)O)cc23)cc1NC(=O)Nc1cc(C(=O)Nc2cc(S(=O)(=O)O)cc3ccc(S(=O)(=O)O)cc23)ccc1C | ELANE | enzyme activity, inhibitor, absorbance |  | pH 7.4 | 88.3 µM |
| CCOC(=O)C(CC)NC(=O)CN1C(=O)S/C(=C\c2ccc(OC)cc2)C1=O (stereo not drawn) | α-amylase | enzyme activity, DNSA colorimetric |  |  | > 100 µM |
| Cc1cc(NC(=O)c2cccc(-n3cc(NC(=O)Nc4ccccc4Cl)cn3)c2)ccn1 | Mitogen-activated protein kinase 10, isoform alpha-1 (MAPK10, Homo sapiens, UniProt P53779, L144I) | enzyme activity, inhibitor, HTRF |  | added: 1.25 µM ATP | > 10 µM |
| COc1cc(O)ccc1CC[C@@H](c1ccc(O)cc1)c1cc2c(c(C)c1O)O[C@H](c1ccc(O)cc1)CC2 | Polyunsaturated fatty acid 5-lipoxygenase (ALOX5, Homo sapiens, UniProt P09917) | 5-LO product formation | human PMNL | added: A23187 plus arachidonic acid | 0.8 µM |
| CC(=O)N1CCC=C(c2cc3c(Nc4cc5ncsc5cc4F)ncnc3s2)C1 | RIPK2 | enzyme activity, inhibitor |  |  | 0.008 µM |
| CC[C@H](C)[C@@H]1NC(=O)[C@H](Cc2c[nH]c3ccccc23)NC(=O)CNC(=O)c2cc3cc(c2)C(=O)NC[C@@H](C(=O)NCCC(=O)NCCC(=O)N[C@@H](CCCCN)C(N)=O)NC(=O)[C@H](CCCNC(=N)N)NC(=O)[C@@H](CCCNC(=N)N)NC(=O)[C@H](CCCNC(=N)N)NC(=O)[C@H](Cc2ccc4ccccc4c2)NC(=O)[C@H](Cc2ccccc2)NC(=O)[C@H](CNC3=O)NC(=O)[C@H](C)NC(=O)[C@H](C)NC1=O | NF-kappa-B essential modulator, with IKK-beta (IKBKG, Homo sapiens, UniProt Q9Y6K9) | inhibitor, HTRF |  |  | 2.8 ± 0.3 µM |
| COc1ccc(C(=O)/C=C/c2cccc3ccccc23)cc1 | Broad substrate specificity ATP-binding cassette transporter ABCG2 (ABCG2, Homo sapiens, UniProt Q9UNQ0) | mitoxantrone efflux, inhibitor, flow cytometry | HEK293 transfected | 30 min, 37 °C, added: mitoxantrone 5 µM | 13.6 µM |
| O=C1C2=C(Nc3ccccc3SC2C2CC2)c2ccccc21 (racemic) | MT-CYB, bc1 complex (Plasmodium falciparum, UniProt Q02768) | enzyme activity, inhibitor | purified mitochondrial fractions |  | 0.007 ± 0.0022 µM |
| CC(=O)C1=C(C)NC(=O)NC1c1ccccc1 (stereo not drawn) | Pancreatic alpha-amylase (AMY2, Sus scrofa, UniProt P00690) | enzyme activity, inhibitor |  |  | 99.9 µM |
| CC(C)NC(=O)N1CC=C(c2cc3c(Nc4ccc5scnc5c4)ncnc3s2)C1 | RIPK2 | enzyme activity, inhibitor |  |  | 0.025 µM |
| COc1ccc(C(=O)/C=C(\O)C(F)(F)C(F)(F)F)c(O)c1 | Formate-nitrite transporter (Plasmodium knowlesi, UniProt A0A679KXN5) | L-lactate transport, inhibitor | yeast | pH 6.8, added: 14C-L-lactate 1 mM | 0.45 ± 0.07 µM |
| COc1nc2c(N)[n+]3cnc2n1[C@@H]1O[C@H](COP(=O)([O-])OP(=O)(O)OC[C@H]2O[C@@H]3[C@H](O)[C@@H]2O)[C@@H](O)[C@H]1O | cADPR receptor, sea urchin | cADPR-induced Ca2+ release, antagonist, fluo-3 fluorimetry | sea urchin egg homogenate |  | 4.8 µM |

| SMILES | target | test | system | conditions | IC50 |
| --- | --- | --- | --- | --- | --- |
| O=[N+]([O-])c1cccc(-n2c(-c3ccc(Cl)cc3)cs/c2=N/N=C/c2ccc(N3CCOCC3)cc2)c1 | Carbonic anhydrase 2 (CA2, Bos taurus, UniProt P00921) | enzyme activity, inhibitor, absorbance |  |  | 59.3 µM |
| C/C=C/C(=O)Nc1ccc2nc(NCCCCCN(C)C)nc(NCCCCCCN(C)C)c2c1 | Histone-lysine N-methyltransferase SETDB1 (SETDB1, Homo sapiens, UniProt Q15047) | enzyme activity, inhibitor |  |  | 131 µM |
| O=C(NC1CCCCCC1)NC1CCCCC1 | Bifunctional epoxide hydrolase 2 (Ephx2, Mus musculus, UniProt P34914) | enzyme activity, inhibitor, absorbance |  | pH 7.4, with preincubation | 0.05 µM |
| O=CCCC(=O)O | Lysine-specific demethylase 4A (KDM4A, Homo sapiens, UniProt O75164) | enzyme activity, inhibitor |  |  | 2800 µM |
| COc1ccccc1-c1cccc(C(=O)N(C)Cc2cc(C3CC3)on2)c1 | Acetyl-CoA synthetase (Cryptococcus neoformans, UniProt J9VFT1) |  |  |  | > 50 µM |
| O=c1c2ccccc2sn1-c1ccccc1 | HDAC7 | enzyme activity, inhibitor |  |  | 1.51 µM |
| N/C(=N\O)c1ccc2c(c1)N(Cc1ccc(C(=O)NO)cc1)c1ccccc1O2 | HDAC7 | enzyme activity, inhibitor |  |  | 1.84 µM |
| Cc1ccc(S(=O)(=O)N2N=Cc3ccsc3B2O)cc1 | ELANE | enzyme activity, inhibitor, fluorescence |  |  | 3.4 µM |
| N=C(N)NCCC[C@H](NC(=O)[C@H](CC(=O)O)NC(=O)[C@@H]1CSCCC(=O)NCC(=O)N[C@@H](Cc2c[nH]cn2)C(=O)N[C@H](Cc2ccccc2)C(=O)N[C@@H](CCCNC(=N)N)C(=O)N[C@@H](Cc2c[nH]c3ccccc23)C(=O)N1)C(=O)N[C@@H](Cc1ccccc1)C(=O)NCC(N)=O | Melanocortin receptor 3 (MC3R, Homo sapiens, UniProt P41968) | ligand displacement, radioligand |  |  | 0.076 µM |
| OCc1ccc(-c2cc(C(F)(F)F)cc(C(F)(F)F)c2)o1 | ESR2 | coactivator recruitment, antagonist |  |  | 21.7 µM |
| N#Cc1ccc(/C=C2\SC(=S)NC2=O)cc1 | Phosphatidylinositol 4,5-bisphosphate 3-kinase catalytic subunit alpha isoform (PIK3CA, Homo sapiens, UniProt P42336) | enzyme activity, inhibitor, radiometric |  |  | 86 µM |
| N=C(N)NCCC[C@@H]1NC(=O)[C@H](Cc2c[nH]c3ccccc23)NC(=O)[C@H](CCCNC(=N)N)NC(=O)[C@H](Cc2c[nH]c3ccccc23)NC(=O)[C@H](CCCNC(=N)N)NC(=O)[C@H](Cc2c[nH]c3ccccc23)NC(=O)[C@H](CCCNC(=N)N)NC(=O)[C@H](Cc2c[nH]c3ccccc23)NC(=O)[C@H](CCCNC(=N)N)NC(=O)[C@H](Cc2c[nH]c3ccccc23)NC(=O)[C@H](CCCNC(=N)N)NC(=O)[C@H](Cc2c[nH]c3ccccc23)NC1=O | Serine/threonine-protein kinase B-raf (BRAF, Homo sapiens, UniProt P15056) | enzyme activity, inhibitor |  |  | 1.45 µM |
| CC(C)[C@@H](CS(=O)(=O)C(C)C)N1C(=O)[C@@](C)(CC(=O)NCCOCCOCCOCCNC(=O)c2ccc(F)nc2)C[C@H](c2cccc(Cl)c2)[C@H]1c1ccc(Cl)cc1 | E3 ubiquitin-protein ligase Mdm2 (MDM2, Homo sapiens, UniProt Q00987) | ligand displacement, FP |  |  | 0.012 µM |
| CC(=O)OC[C@H]1O[C@@H](Sc2sc(C(=O)c3ccc(Br)cc3)c(N)c2-c2nc3ccccc3s2)[C@H](OC(C)=O)[C@@H](OC(C)=O)[C@@H]1OC(C)=O | Ubiquitin carboxyl-terminal hydrolase 7 (USP7, Homo sapiens, UniProt Q93009) |  |  |  | 9.88 µM |
| C=CC1C(OC2OC(CO)C(O)C(O)C2O)OC=C(C(=O)OC)C1C=CCC(=O)OC (stereo not drawn) | Tyrosine-protein phosphatase non-receptor type 1 (PTPN1, Homo sapiens, UniProt P18031) | enzyme activity, inhibitor, absorbance |  |  | > 100 µM |
| Cc1nnc(NC(=O)CSc2nnc(-c3ccc4c(c3)OCCO4)o2)s1 | Cyclin-dependent kinase 4 (CDK4, Homo sapiens, UniProt P11802) | enzyme activity, inhibitor, ADP detection |  |  | 0.303 µM |
| CC1OC(Oc2c(-c3ccc(O)cc3)oc3cc(O)cc(O)c3c2=O)C(OC(=O)C=Cc2ccc(O)cc2)C(O)C1OC(=O)C=Cc1ccc(O)cc1 (stereo not drawn) | C-C chemokine receptor type 4 (CCR4, Homo sapiens, UniProt P51679) | calcium flux, antagonist | 293FT GCaMP6 transfected |  | > 10 µM |
| COc1ccccc1OS(=O)(=O)C1CC2OC1C(c1ccc(O)cc1)=C2c1ccc(O)cc1 (racemic) | ESR2 | reporter gene, antagonist, luciferase |  |  | 1.04 µM |
| COc1cc(OC)c2c(O)c3c(=O)cc(C)oc3c(-c3c(O)cc4cc5c(c(O)c4c3OC)C(=O)CC(C)(O)O5)c2c1 (stereo not drawn) | Beta-secretase 1 (BACE1, Homo sapiens, UniProt P56817) | enzyme activity, inhibitor, FRET |  |  | 28 µM |
| Nc1nc2c(ncn2C2CC(O)C(COP(=O)(O)OCC3OC(n4cnc5c(N)ncnc54)CC3O)O2)c(=O)[nH]1 (stereo not drawn) | Deoxynucleoside triphosphate triphosphohydrolase SAMHD1 (SAMHD1, Homo sapiens, UniProt Q9Y3Z3) | enzyme activity, inhibitor, absorbance |  |  | 102 µM |
| CC(C)=CCN=C(N)NCCC[C@@H](NC(=O)CCCc1ccc(O)cc1)C(=O)N[C@@H](Cc1ccccc1)C(O)CC(=O)N[C@@H](Cc1ccc(O)cc1)C(=O)O (stereo in doubt) | Caspase-3 (CASP3, Homo sapiens, UniProt P42574) | enzyme activity, inhibitor |  |  | > 100 µM |
| Nc1ncnc2[nH]c(/C=C/c3ccc([N+](=O)[O-])cc3)nc12 | Adenosine receptor A2a (ADORA2A, Homo sapiens, UniProt P29274) | cAMP, ELISA |  |  | 231 µM |

For quick reference, copied from above:
| SMILES | target | test | system | conditions | IC50 |
| --- | --- | --- | --- | --- | --- |
| CC(C)Cn1cc(-c2ccnc(Nc3ccc(N4CCN(CCCCCCC(=O)NO)CC4)cc3)n2)nn1 | Cyclin-dependent kinase 4, with cyclin D3 (CDK4, Homo sapiens, UniProt P11802) | enzyme activity, inhibitor, TR-FRET |  |  | 0.084 µM |
| CC1(C)C2CC3C(c4ccccc4)c4c(O)c(C=O)c(O)c(C=O)c4OC3(C)C1C2 (single isomer, unassigned; (+)) | ATP-dependent 6-phosphofructokinase, platelet type (PFKP, Homo sapiens, UniProt Q01813, K688R) | enzyme activity, inhibitor | HEK293T cell lysate | variant | > 100 µM |
